Measured values of several laboratories.
Every numbered part comes from another study and shows a few of its results, in no order. Substitutions count along the parent as printed.

Set 1
Target: CCNE2, cyclin fold, Cln2 fusion (human)
Method: yeast growth competition, sequencing
Sample: yeast
Setting: strong parent motif
Relative to: not given
Direction: higher = stronger binding
Starting sequence: CDKN1A docking peptide (human); SKACRRLFGPVDS; partner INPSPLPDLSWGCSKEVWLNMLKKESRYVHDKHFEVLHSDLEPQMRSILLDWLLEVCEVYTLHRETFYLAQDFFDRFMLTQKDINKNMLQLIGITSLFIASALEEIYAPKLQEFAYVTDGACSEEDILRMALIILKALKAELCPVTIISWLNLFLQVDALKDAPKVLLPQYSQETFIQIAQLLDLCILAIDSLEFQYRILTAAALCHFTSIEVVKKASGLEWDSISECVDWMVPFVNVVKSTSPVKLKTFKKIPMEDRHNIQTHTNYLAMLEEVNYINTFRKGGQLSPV
| Change | normalised enrichment score |
| --- | --- |
| SKACRRLFPPVDS [G9P] | 4.11 |
| SFACRRLFGPVDS [K2F] | 2.34 |
| SKACRRLFGPLDS [V11L] | 3.52 |
| SKACRRKFGPVDS [L7K] | 0.489 |
| SKACRRLFGPKDS [V11K] | 3.15 |
| SWACRRLFGPVDS [K2W] | 1.75 |
| SKLCRRLFGPVDS [A3L] | 0.783 |
| SKACRRLFGPVSS [D12S] | 2.75 |
| SKACRRQFGPVDS [L7Q] | 0.25 |
| SKMCRRLFGPVDS [A3M] | 1.22 |
| SKACRRLFGPVRS [D12R] | 1.94 |
| SKACRRLFSPVDS [G9S] | 4.04 |
| SKACRRLHGPVDS [F8H] | 0.0926 |
| SKACRRLFGLVDS [P10L] | 2.2 |
| SKACRRLFGPWDS [V11W] | 4.1 |
| SKACARLFGPVDS [R5A] | 0.275 |
| SKACRHLFGPVDS [R6H] | 0.891 |
| SKACRRLQGPVDS [F8Q] | 0.195 |
| SKACRRLRGPVDS [F8R] | 0.407 |
| SKACRRLIGPVDS [F8I] | 0.576 |
| SKACRRLFGPVPS [D12P] | 3.98 |
| SKACRLLFGPVDS [R6L] | 1.1 |
| SKDCRRLFGPVDS [A3D] | 0.115 |
| SKACRNLFGPVDS [R6N] | 1.96 |
| SKACRRHFGPVDS [L7H] | 0.0736 |

Set 2
Target: Sal-like protein 4, full length isoform A (SALL4, Homo sapiens, UniProt Q9UJQ4, residues 1-1053)
Chain of UniProt Q9UJQ4 (whole entry, looked up): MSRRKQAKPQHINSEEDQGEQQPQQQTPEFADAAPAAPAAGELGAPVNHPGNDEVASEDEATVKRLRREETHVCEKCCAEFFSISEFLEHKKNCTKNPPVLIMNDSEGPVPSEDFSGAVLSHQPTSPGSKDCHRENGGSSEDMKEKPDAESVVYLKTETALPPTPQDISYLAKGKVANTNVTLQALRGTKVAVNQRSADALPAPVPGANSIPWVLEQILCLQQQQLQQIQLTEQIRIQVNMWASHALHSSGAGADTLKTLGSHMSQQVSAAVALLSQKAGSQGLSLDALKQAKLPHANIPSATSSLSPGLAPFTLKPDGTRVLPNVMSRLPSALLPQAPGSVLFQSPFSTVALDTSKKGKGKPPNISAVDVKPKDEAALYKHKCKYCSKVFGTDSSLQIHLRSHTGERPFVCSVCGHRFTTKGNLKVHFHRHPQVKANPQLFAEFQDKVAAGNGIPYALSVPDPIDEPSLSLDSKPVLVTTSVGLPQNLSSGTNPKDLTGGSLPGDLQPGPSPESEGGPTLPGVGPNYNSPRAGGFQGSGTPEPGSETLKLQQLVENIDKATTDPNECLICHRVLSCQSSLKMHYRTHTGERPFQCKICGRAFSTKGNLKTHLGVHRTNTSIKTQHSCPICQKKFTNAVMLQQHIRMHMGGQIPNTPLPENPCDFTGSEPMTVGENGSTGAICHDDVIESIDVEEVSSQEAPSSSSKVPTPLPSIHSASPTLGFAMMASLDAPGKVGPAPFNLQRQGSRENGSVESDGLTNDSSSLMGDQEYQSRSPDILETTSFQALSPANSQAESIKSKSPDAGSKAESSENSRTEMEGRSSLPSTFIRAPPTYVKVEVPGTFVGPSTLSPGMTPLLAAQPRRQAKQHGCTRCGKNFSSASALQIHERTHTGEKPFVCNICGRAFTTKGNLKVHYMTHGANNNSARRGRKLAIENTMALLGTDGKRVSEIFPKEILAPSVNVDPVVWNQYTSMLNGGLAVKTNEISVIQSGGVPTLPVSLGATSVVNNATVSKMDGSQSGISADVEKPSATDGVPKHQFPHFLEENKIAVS
Method: universal PBM
Form: double-stranded DNA, one strand shown
Sample: in vitro
Concentration: 600 nM
Setting: 8-mer, flanks averaged, mean of replicates
Direction: higher = stronger binding
| Sequence | E-score |
| --- | --- |
| ACGCCTCC | -0.216 |
| AAGCTGTA | 0.133 |
| GACGTATC | 0.034 |
| CGGCGAGA | -0.332 |
| CATCTAGC | 0.037 |
| CATCAAAC | 0.0874 |
| CTCTGAAG | -0.117 |
| CGTTCCTA | 0.0841 |
| ATGCCTAA | 0.157 |
| GAATAGTC | 0.019 |
| TAACGTCA | 0.243 |
| ATCCTACG | 0.00036 |
| GCCCATAC | -0.0372 |
| CCGCGCTA | -0.0876 |
| ACAAAACT | 0.156 |
| AACCGCTG | -0.176 |
| ACTTGAAC | 0.126 |
| CAGCGACC | -0.379 |
| GGTTACTA | -0.0615 |
| AGCTCGAC | -0.156 |
| CAGTGGGA | -0.283 |
| CAGTCCGC | -0.15 |

Set 3
Target: RING finger protein unkempt homolog, zinc fingers 1-6, GST-SBP tag (UNK, Homo sapiens, UniProt Q9C0B0, residues 30-357)
Chain of UniProt Q9C0B0 (30-357, looked up): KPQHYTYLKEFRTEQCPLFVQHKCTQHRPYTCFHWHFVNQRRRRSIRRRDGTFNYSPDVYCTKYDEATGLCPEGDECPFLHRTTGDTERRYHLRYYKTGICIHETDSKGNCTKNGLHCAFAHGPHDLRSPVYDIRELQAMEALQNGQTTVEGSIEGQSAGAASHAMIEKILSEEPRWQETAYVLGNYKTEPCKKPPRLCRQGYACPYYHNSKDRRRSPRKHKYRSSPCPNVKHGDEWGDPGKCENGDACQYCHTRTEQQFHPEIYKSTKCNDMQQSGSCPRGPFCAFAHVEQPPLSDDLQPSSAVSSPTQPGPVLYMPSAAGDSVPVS
Method: RNA Bind-n-Seq
Form: RNA
Sample: in vitro
Concentration: not given
Setting: RNA with constant flanks, human-mouse chimeric sites, ends assumed
Relative to: input RNA pool
Direction: higher = stronger binding
Constant ends, left off below: GGGAGUUCUACAGUCCGACGAUC … CAACAGAGGAUUGAGCAUCA
| Sequence | bound/input enrichment [ratio] |
| --- | --- |
| UACUCAACUUUCUUGCCACAUUUUGAAUUCCAAGACAUUAUUCCUCCAGAUGACUUCCUAACGAGUGAUGAAGAAGUAGAUUUGGUUUUAUUUGGAAGUUUGAGAGGACAAGUUGUUGGA | 0.306 |
| GGACAUCUGUCAAAUUGUUAUGUUCCUAAAAACGUAGUGAACACUCUUCAUAUACUAAUCUGCUUGUACAUCUGUAUGAUAGAGAAAUGUAAAUAUGUUAAUCCAAGCAAUGUGUCACUU | 0.327 |
| CAGCUGCAGACAGAAAAGGAUGAGAAGGAGCUGUAUAAGGUACAUUUGAAGAAUACAGAAAUAGAAAAUACCAAGCUUGUGUCAGAGAUACAGACUUUAAAGAAUUUAGAUGGGAACAAA | 2.62 |
| GUAAUGUUUAUUCAUUUAACUUAUUUUUAUAGCUAGAUAAAUAUUGUUAGUCUUAGACAAUAGCUCACAUUUUUUGAGAAGCAUGCCCUCCCUAUCCAUUUGUCUUAUAACAUGACCCAG | 8.72 |
| CACAGAGCAGCACCUACCCCCUCCUCCUUUCCACACCUGCAAACUCUUUUACUUGGGCUGCAUAGUUAGUGUAAUUACAUCUCAGCUUUGAGGGCUCCCUGUGGCAAUUCCCGGAUUAAA | 3.68 |
| CAGCUGCAGACAGAAAAGGAUGAGAAGGAGCUGUAUAAGGUACAUUUGAAGAAUACAGAAAUAGAAAAUACCAAGCUUGUGUCAGAGAUACAGACUUUAAAAAAUUUAGAUGGAAACAAA | 6.6 |
| UACUACUAUGAUGGUGAUAUUGGCAAUUAUUAUUAUGGACAGGGUCAUCCCAUGAAGCCUCAUAGAAUCCGGAUGACUCAUAACUUGCUGCUAAAUUAUGGUUUAUACCGAAAAAUGGAA | 0.275 |
| GUAUACGGUUAUCGAGGAAAGGACUGUAGAGCUAAUGUAUACCUGCUUCCCACAGGGGAGAUAGUUUAUUUUAUCGCAUCAGUAGUAGUCCUGUUUAAUUAUGAGGAGAGGACUCAGCGA | 2.49 |
| GCAAAGGAUGAUGAGGCGGCAGCUGUUGCCCUUUCCUCUCUCGUUCAUGCUUUGGAUGACUUAGACAUGGUCGCCAUCGUCCGAUAUGCUUAUGACAAAAGAUCUAAUCCUCAAGUCGGU | 0.32 |
| ACACAAUAUGAGACCAACAGCAUGGACUUCAAAGUUGGGGCAGAUGGGACAGUCUUCGCCACCCGGGAGCUGCAGGUCCCCUCCGAGCAGGUGGCCUUUACCGUCACUGCAUGGGACAGC | 0.146 |
| UGGCGCCUGCGCUCCCCGUUUUUAAAUUUAAGUGUAUUUUUAUAAGAUACAUGUAUUUACAAUUGAGCUUUUGUUACAUAAUGCUGAAAACAUCUCUGAGAUUAUGAAAAAUGUUUCAAU | 0.255 |

Set 4
Target: RNA binding protein fox-1 homolog 2, RRM domain, GST-SBP tag (RBFOX2, Homo sapiens, UniProt O43251-10, residues 100-194)
Method: RNA Bind-n-Seq
Form: RNA
Sample: in vitro
Concentration: 365 nM
Setting: natural RNA segment, single round, ends assumed
Relative to: no-protein control
Direction: higher = stronger binding
Constant ends, left off below: GGGAGUUCUACAGUCCGACGAUC … UGGAAUUCUCGGGUGCCAA
Target sequence (chain): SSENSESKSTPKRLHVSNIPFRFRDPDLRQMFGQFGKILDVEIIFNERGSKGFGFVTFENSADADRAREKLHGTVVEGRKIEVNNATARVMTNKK
| Sequence | RBNS enrichment (R) |
| --- | --- |
| AUCUCACACUCAUGCAUUGUCCUCUUUUUAUUUAGAUUGGCAGUGUAGGGAGUUGUGGGUAGUGGGGAAGAGGGUUAGGAGGGUUUCAUUGUCUGUGAAGUGAGACCUUC | 0.8 |
| UGAAGGACACAAAUGUGACCGUCCAUCCUCCUUUAGAGUUGCAUGACUUGGACACGGUAACUGUUGCAGUUUUAGACUCAGCAUUGUGACACUUCCCAAGAAGGCCAAAC | 3.79 |
| AGUUUCAGGUGAACUUCUUCAGCAGAAUAAGGUGAUGCCACUCUGACCUUUGCUGAGCUCAGUGACUCUUCAGUGUUAAAACUGAACCCCAGAGGGGAUUCUCCAUGCCA | 0.233 |
| UUCCAAUAGAAAAUUCCGCUUGACCUUUGGUGCACUGCCCACUUCCCAGCUCCACUGGCCCAAGUCUGAGCCGGAGGCCCUUGUUUUGGGGGCGGGGGGAGAGUUGGAUG | 0.77 |
| UUGCUUACUGAUGUAUCUAUUUGUACAGAUAGUGGAGAGCUAGUUGCUAAUAAUGUCUUGUUUGGGUCUCCCAAACCCUACCUCUCAACUCCCUUAAGAGUAUCACUGUU | 0.339 |
| CCAUGGAUGCAUAUAGGAUGUUUGGGAGCAUCAUCCGUGAAGAAAAAAUCAAUUAAAUCAUUGUGUUCAACAGGAAUAUUUAAAAUAUUCUGCAUGAAUCCUGUGGCUGU | 0.61 |
| UCAGAAUAUGUCUUGUACUUCUAUGGUUAAAAUUAGUACUGCUUUCUCUCGUGAAUGGAGCUGUUUUCUUCAGAGCCUUUGCUCUGAAACAUCACGCUCCCCUGUAUGGG | 0.33 |
| GCAGUCUUCAUGCUGCCCUGCUGCUGCUGGAAGGAUGGGGAUCUUUCACCUUUAGGGAUCUCAGCACAAUUAGAAUCGUAAAGUGAAUUCUAUCUAUUUAAUUGGAUAUU | 0.574 |
| UGGCUAACAUCCAUAUGUAUAUAUCUUAUUUAUAAAUAAAAAUUGUAAAUGUCAGUUUCGGUAUCCCACAAAAAAGCCUGUCUCCGGCGUCUGUGGGGAAUCUCAGCAUU | 2.31 |
| UGGUGAGACUGCUAAUUGAUUCAGUGUAUGAUAGUUCACACGGGAUGAGAACCUUGGCCUUUAUCACCCAAACAAGAACUCUCUAUGAGAUUGGUUGACGUGAGUUGGUU | 0.857 |
| CUGCUGAAGACAUUCGUAUUAUGUGUUAGAUGCUUUAAUGUUUGCAAAAUCUGUCUUGUGAAUGGACUGUCAGCUGUUAAACUGUUCCUGUUUUGAAGUGCUAUUACCUU | 7.24 |
| AUCUUAAGCUUCUCUACUGAGGCAUUCUGAGUAGUGGCCAUCAGAGUCUCCUGCCUGCCCACAGAGCAGAGAACCAGUGCACGCUCUUAAGAGAAACUACUUGGCCAAAC | 0.973 |

Set 5
Target: ATF7, bZIP domain (human)
Method: DHFR protein complementation
Sample: yeast
Setting: single substitutions, most at no-binding floor
Relative to: wild-type JUN-FOS pair
Direction: higher = stronger binding
Starting sequence: JUN, bZIP domain (human); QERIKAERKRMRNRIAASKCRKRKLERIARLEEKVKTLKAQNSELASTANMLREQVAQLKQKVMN; partner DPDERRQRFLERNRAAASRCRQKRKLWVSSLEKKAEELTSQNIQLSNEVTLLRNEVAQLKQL
| Change | binding fitness [natural log] |
| --- | --- |
| Q58S | -0.895 |
| A57K | -0.886 |
| A49C | -1.16 |
| I28Y | -1.06 |
| L52H | -1.47 |
| A57R | -0.909 |
| L31E | -1.48 |
| T48L | -0.822 |
| A29K | -1 |
| T48Q | -0.695 |
| Q41N | -1.25 |
| L38C | -1.32 |
| E44I | -1.07 |
| R30M | -0.678 |
| R30C | -0.952 |
| N42T | -1.42 |
| M51Q | -0.868 |
| E54N | -0.926 |
| Q55W | -1.37 |

Repeated from above (set 1):
| Change | normalised enrichment score |
| --- | --- |
| SKACRRLFGPVSS [D12S] | 2.75 |
| SKACRRLFGPVRS [D12R] | 1.94 |
| SKACRRLFGPVPS [D12P] | 3.98 |
| SKDCRRLFGPVDS [A3D] | 0.115 |
| SKACRHLFGPVDS [R6H] | 0.891 |
| SKACRRLHGPVDS [F8H] | 0.0926 |
| SKACRRLFGPKDS [V11K] | 3.15 |
| SKACRRLIGPVDS [F8I] | 0.576 |
| SKACRRHFGPVDS [L7H] | 0.0736 |
| SKMCRRLFGPVDS [A3M] | 1.22 |
| SKACRRLQGPVDS [F8Q] | 0.195 |
| SKACRRLFGLVDS [P10L] | 2.2 |
